Published values from different studies.
Values joined by “and” are separate records of one study, mostly repeats; a detail may differ. ± gives the spread as reported.
CYP2C19: Cytochrome P450 2C19 (CYP2C19, Homo sapiens, UniProt P33261)
UniProt P33261, sequence (whole entry, looked up): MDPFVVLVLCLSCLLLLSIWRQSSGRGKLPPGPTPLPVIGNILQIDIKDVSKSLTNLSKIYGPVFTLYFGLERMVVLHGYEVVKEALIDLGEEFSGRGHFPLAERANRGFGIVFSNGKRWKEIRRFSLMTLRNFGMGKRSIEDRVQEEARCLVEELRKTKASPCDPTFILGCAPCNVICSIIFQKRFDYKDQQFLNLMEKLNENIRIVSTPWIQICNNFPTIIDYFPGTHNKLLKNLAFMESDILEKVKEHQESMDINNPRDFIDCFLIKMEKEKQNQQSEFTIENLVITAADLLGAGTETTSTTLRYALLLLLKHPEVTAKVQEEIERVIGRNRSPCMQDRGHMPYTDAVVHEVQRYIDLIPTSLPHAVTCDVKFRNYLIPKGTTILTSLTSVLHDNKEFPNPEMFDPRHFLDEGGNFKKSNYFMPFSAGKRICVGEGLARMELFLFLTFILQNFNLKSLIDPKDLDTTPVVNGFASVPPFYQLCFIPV
UniProt P08684, sequence (whole entry, looked up): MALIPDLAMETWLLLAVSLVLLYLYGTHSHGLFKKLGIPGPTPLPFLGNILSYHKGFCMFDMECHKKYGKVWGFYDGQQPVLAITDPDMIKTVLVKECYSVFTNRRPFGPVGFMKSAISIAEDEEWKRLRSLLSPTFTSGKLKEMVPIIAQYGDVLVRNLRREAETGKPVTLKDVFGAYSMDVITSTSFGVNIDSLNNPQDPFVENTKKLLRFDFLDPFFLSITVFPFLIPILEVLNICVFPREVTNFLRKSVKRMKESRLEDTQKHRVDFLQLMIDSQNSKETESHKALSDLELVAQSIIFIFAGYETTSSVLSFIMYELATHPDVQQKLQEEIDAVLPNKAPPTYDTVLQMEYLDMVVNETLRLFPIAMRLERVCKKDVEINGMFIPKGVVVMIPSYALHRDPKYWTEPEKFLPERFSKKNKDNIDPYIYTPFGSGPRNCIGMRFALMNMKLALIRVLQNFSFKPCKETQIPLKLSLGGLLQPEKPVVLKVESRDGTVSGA

COc1cc2ncnc(Nc3ccc(Oc4ccccc4)c(C)c3C)c2cc1OC.Cl — viability (MeWo (NF1 mutant); resazurin; 0.1 µM, 72 h, unit not given, added: trametinib; baseline: DMSO): 0.959
NC(=O)c1ncn([C@@H]2O[C@H](CO)[C@@H](O)[C@H]2O)n1 — selectivity index (human respiratory syncytial virus; viral replication, viral protein ELISA; HEp-2, A2; 5 days; baseline: CC50 over EC50): 6.63
C[C@@H](O)[C@H](N)C(=O)O — uptake half-time (Bacillus subtilis; NCIB3610, MOPS medium; 1 mM, 1 mM equimolar amino acid mixture): 28.3 h
C[C@@H]1CN(c2c(F)c(N)c3c(=O)c(C(=O)O)cn(C4CC4)c3c2F)C[C@H](C)N1 — QTc interval (male Hartley guinea pig, anaesthetized; intravenous infusion, 30 mg/kg, 10 min infusion, post-infusion): 380 ± 1.5 ms
Cc1ccc(S(=O)(=O)Nc2nc(N)c(-c3nc4ccccc4s3)c(-c3ccc(F)cc3)n2)cc1 — maximum non-toxic concentration (BGM; cytotoxicity; 72 h): 100 µg/mL
COc1ccc2[nH]c([S+]([O-])Cc3ncc(C)c(OC)c3C)nc2c1 (centres unmarked) — geometric LS mean ratio of AUClast (CYP2C19; human, plasma; oral, 20 mg, Day 1, added: single dose encorafenib and binimetinib; baseline: Day -7): 1.26
Cc1cc(Nc2ccc(S(F)(F)(F)(F)F)cc2)n2nc(C(C)(F)F)nc2n1 — patients with blurred vision (Plasmodium vivax; human Plasmodium vivax malaria patients; oral, 400 mg): 0%
C[C@]12CC[C@@H]3c4ccc(O)cc4C[C@@H](CCCCCCCCC[S+]([O-])CCCC(F)(F)C(F)(F)F)[C@H]3[C@@H]1CC[C@@H]2O (some centres unmarked) — viability (LCC2 tamoxifen-resistant; CCK-8; 20 nM; baseline: untreated): 95.6% and 93.1% and 97.9%
CCC(CC)C(=O)Oc1cccc(C(O)CCN)c1.O=CO (centres unmarked) — compound remaining (porcine liver esterase; 99 µM, 5 min; baseline: time 0 min): 93.4%
N[C@@H](CO)C(=O)O — uptake half-time (Bacillus subtilis; 168, S7 medium; 1 mM, equimolar amino acid mixture): 9.5 h
COc1ccc2nc([S+]([O-])Cc3ncc(CO)c(OC)c3C)[nH]c2c1 (centres unmarked) — metabolite to parent Cmax ratio (CYP2C19; human, plasma; oral, 20 mg omeprazole, Day 14, added: encorafenib at steady state; baseline: 5-hydroxyomeprazole over omeprazole): 0.227
N[C@@H](CCC(=O)O)C(=O)O — half-time of uptake (Bacillus subtilis; amino acid uptake; 168, S7 medium; added: equimolar amino acid mixture 1 mM): 9 h
COc1cccc2c1C(=O)c1c(O)c3c(c(O)c1C2=O)C[C@@](O)(C(=O)CO)C[C@@H]3O[C@H]1C[C@H](N)[C@H](O)[C@H](C)O1 — viability (BNL mouse liver cells; SRB; 0.01 µM, 10% fetal bovine serum): 99.3%
CC[C@H]1[C@@H](O)[C@@H]2[C@H](CC[C@]3(C)[C@@H]([C@H](C)CCNC(=O)NS(=O)(=O)c4ccc(C(C)(C)C)cc4)CC[C@@H]23)[C@@]2(C)CC[C@@H](O)C[C@@H]12 — half-life geometric mean (Cytochrome P450 3A4 (CYP3A4, Homo sapiens, UniProt P08684); human, plasma; 10 mg, day 1, compound alone): 11.8 h
COc1cc(N)c(Cl)cc1C(=O)NC1CCN(CCCOc2ccc(F)cc2)CC1OC (centres unmarked) — QTc interval (male Hartley guinea pig, anaesthetized; intravenous infusion, 0.1 mg/kg, 10 min infusion, post-infusion): 327 ± 1.3 ms
Cc1cc(C(=O)NC(C)(C)COc2cccc3c2C(N)=NS(=O)(=O)N3)cc(C)n1 — cytotoxicity (human peripheral blood lymphocytes; CBPI, concurrent micronucleus test; 100 µg/mL, 4 h, added: rat liver S9; baseline: vehicle control): 4%
Cc1noc(C)c1Cn1cc(N2C(=O)CN(Cc3cccc(O)c3)C2=O)cn1 — aberrant cells without gaps (human blood lymphocytes; 400 µg/mL, 21 h): 0%

Repeated from above:
Cc1cc(C(=O)NC(C)(C)COc2cccc3c2C(N)=NS(=O)(=O)N3)cc(C)n1 — cytotoxicity (human peripheral blood lymphocytes; CBPI, concurrent micronucleus test; 100 µg/mL, 4 h, added: rat liver S9; baseline: vehicle control): 4%
